Published values pooled from the literature.
Numbered parts are unrelated; each lists some results of a single study.
Chain of UniProt Q02763 (whole entry, looked up): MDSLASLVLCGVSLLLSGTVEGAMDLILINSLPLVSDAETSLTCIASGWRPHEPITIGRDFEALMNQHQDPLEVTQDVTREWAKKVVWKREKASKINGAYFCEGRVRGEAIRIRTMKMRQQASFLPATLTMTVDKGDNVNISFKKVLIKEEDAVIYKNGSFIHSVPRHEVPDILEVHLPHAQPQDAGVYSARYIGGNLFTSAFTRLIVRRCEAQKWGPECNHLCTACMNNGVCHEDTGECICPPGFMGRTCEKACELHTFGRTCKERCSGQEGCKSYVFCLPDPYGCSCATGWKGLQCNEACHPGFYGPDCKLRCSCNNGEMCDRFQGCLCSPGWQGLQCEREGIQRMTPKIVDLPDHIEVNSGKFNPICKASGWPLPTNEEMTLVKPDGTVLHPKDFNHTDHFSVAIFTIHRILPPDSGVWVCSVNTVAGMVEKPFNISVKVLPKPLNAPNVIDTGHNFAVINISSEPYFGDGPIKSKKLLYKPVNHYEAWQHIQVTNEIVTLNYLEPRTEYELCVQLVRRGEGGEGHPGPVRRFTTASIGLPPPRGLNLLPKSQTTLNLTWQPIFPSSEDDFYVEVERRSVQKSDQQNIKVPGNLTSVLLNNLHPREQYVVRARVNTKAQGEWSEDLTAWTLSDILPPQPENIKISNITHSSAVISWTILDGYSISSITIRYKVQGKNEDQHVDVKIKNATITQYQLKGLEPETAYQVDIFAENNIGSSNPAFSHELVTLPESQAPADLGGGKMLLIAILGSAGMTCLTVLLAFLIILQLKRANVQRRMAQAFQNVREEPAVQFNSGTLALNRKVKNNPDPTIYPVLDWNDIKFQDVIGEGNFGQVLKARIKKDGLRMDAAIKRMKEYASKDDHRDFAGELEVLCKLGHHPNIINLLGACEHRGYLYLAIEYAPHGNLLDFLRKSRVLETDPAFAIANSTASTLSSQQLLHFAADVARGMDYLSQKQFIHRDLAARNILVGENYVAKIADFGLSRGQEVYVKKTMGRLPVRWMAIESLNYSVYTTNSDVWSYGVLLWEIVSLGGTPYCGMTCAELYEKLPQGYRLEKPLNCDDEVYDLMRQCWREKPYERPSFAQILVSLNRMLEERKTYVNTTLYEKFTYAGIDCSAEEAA
Chain of UniProt P27361 (whole entry, looked up): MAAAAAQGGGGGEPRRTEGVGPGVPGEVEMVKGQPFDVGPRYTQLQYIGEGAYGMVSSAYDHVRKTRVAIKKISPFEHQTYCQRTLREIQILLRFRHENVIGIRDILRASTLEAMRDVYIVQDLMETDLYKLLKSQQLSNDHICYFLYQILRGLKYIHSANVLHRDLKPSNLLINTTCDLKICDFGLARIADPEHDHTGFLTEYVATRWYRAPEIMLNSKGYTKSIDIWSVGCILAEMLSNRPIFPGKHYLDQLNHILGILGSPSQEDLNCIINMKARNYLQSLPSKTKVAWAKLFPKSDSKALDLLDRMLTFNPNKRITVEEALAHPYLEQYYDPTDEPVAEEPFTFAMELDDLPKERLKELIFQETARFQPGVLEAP
Chain of UniProt Q06418 (whole entry, looked up): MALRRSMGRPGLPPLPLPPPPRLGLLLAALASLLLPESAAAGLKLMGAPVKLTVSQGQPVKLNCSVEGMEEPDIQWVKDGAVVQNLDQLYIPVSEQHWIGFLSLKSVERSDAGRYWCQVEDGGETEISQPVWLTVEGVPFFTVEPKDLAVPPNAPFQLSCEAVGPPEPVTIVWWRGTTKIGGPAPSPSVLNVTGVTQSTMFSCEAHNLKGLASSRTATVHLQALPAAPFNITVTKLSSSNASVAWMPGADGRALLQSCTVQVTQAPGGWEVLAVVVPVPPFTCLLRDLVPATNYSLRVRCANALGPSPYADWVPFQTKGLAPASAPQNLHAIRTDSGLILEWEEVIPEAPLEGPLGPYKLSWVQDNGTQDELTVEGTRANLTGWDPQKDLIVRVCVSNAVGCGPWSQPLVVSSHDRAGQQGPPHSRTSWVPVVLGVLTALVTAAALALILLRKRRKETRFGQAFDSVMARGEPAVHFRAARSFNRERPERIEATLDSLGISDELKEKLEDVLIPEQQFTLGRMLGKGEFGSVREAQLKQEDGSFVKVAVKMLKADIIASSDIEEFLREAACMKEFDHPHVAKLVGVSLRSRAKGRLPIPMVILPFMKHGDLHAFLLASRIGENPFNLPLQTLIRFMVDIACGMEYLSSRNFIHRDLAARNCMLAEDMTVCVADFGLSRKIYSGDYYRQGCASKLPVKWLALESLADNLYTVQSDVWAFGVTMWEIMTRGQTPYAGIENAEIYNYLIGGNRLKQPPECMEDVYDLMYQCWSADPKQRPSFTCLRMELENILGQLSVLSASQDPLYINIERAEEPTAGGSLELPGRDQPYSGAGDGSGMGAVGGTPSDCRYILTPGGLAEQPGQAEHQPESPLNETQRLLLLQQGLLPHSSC
Chain of UniProt P49840 (whole entry, looked up): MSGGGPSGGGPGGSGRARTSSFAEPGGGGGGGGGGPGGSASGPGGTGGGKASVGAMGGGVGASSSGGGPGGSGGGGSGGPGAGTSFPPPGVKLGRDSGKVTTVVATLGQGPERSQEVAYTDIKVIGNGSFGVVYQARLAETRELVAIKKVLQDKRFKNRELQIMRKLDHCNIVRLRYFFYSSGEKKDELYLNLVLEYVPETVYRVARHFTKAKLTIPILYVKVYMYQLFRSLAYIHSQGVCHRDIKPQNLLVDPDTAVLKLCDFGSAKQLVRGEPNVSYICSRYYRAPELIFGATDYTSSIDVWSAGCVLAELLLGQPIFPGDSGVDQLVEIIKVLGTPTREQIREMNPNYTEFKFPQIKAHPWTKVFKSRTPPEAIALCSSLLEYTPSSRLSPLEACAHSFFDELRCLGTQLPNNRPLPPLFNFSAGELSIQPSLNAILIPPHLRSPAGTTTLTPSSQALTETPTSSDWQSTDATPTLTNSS
Chain of UniProt P42336 (whole entry, unmodified, looked up): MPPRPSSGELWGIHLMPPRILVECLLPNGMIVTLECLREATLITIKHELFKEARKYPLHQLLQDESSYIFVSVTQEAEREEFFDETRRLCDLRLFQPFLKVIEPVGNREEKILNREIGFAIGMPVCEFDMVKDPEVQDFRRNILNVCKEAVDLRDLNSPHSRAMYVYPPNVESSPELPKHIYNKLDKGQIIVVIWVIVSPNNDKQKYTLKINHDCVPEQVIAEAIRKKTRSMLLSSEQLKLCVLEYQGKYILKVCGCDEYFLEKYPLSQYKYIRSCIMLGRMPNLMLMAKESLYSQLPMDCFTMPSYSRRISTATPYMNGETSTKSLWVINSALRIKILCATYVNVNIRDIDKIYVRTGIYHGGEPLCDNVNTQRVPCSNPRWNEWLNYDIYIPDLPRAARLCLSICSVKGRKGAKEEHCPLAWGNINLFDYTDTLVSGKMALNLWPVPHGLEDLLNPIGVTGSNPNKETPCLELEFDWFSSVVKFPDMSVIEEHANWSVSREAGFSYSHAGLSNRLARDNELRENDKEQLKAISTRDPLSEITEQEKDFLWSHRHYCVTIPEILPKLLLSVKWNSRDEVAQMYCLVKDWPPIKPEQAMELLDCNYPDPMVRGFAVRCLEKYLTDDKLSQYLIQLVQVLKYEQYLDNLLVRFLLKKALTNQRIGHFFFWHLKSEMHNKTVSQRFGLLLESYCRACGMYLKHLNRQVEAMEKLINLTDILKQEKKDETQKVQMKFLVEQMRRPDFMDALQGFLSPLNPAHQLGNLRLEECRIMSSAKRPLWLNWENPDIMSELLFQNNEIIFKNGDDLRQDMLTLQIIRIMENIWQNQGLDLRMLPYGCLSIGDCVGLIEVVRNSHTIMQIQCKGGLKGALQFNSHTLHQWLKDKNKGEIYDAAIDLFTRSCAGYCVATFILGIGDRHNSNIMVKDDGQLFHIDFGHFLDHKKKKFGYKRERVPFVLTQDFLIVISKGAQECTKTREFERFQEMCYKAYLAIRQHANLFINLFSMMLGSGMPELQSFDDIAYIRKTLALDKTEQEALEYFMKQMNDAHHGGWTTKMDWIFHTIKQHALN
Chain of UniProt O75582 (whole entry, looked up): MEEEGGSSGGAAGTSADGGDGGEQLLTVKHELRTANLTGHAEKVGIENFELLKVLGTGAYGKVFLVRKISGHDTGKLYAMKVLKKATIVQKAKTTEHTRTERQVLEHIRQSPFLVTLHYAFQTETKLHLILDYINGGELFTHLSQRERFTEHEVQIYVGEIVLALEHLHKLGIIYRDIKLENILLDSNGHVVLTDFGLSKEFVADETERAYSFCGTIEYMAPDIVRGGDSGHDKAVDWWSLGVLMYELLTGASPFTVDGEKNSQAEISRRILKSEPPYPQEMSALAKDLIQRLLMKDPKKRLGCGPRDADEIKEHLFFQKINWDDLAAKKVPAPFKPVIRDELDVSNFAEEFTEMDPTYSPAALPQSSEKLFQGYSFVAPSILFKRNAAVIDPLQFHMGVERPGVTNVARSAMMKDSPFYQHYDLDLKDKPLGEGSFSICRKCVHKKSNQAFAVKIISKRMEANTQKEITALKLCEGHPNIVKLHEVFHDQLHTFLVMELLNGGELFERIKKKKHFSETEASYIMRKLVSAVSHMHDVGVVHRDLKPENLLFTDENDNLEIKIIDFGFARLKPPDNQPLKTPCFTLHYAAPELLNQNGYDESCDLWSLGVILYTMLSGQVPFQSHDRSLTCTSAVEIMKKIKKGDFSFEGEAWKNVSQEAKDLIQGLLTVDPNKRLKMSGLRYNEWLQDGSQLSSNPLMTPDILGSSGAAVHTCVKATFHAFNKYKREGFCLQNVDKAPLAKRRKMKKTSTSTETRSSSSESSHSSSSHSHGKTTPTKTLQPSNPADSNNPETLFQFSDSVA
Chain of UniProt Q9HC98 (whole entry, looked up): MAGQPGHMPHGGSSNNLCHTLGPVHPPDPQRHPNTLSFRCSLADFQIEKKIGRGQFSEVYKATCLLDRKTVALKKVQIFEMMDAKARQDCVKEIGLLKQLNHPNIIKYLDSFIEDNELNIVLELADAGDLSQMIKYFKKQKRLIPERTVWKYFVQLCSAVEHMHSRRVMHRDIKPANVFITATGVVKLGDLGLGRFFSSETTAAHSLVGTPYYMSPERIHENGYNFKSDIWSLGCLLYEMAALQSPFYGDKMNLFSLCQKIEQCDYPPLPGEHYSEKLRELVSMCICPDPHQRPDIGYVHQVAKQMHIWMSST

Series 1
SMILES: CS(=O)(=O)CCNCc1ccc(-c2ccc3ncnc(Nc4ccc(OCc5cccc(F)c5)c(Cl)c4)c3c2)o1
Effect on: enzyme activity
Mode: inhibitor
Concentration: 0.5 µM
Relative to: control
target | remaining activity
ACVR1B (Homo sapiens, UniProt P36896) | 98.7%
LCK (Homo sapiens, UniProt P06239) | 94.2%
FGFR3 (Homo sapiens, UniProt P22607) | 96.7%
TEK (Homo sapiens, UniProt Q02763) | 93.2%
MAPK3 (Homo sapiens, UniProt P27361) | 94.8%
MAP2K2 (Homo sapiens, UniProt P36507) | 106%
GRK7 (Homo sapiens, UniProt Q8WTQ7) | 95.8%
MAPKAPK2 (Homo sapiens, UniProt P49137) | 94.7%
GSK3B (Homo sapiens, UniProt P49841) | 103%
MERTK (Homo sapiens, UniProt Q12866) | 95.4%
MAP3K14 (Homo sapiens, UniProt Q99558) | 109%
RPS6KA2 (Homo sapiens, UniProt Q15349) | 84%
TBK1 (Homo sapiens, UniProt Q9UHD2) | 103%
FRK (Homo sapiens, UniProt P42685) | 104%
FGFR1 (Homo sapiens, UniProt P11362) | 102%
ABL2 (Homo sapiens, UniProt P42684) | 97.3%
MST1R (Homo sapiens, UniProt Q04912) | 92.2%
ARAF (Homo sapiens, UniProt P10398) | 85%
NEK6 (Homo sapiens, UniProt Q9HC98) | 93.7%
TAOK2 (Homo sapiens, UniProt Q9UL54) | 105%
JAK3 (Homo sapiens, UniProt P52333) | 96.2%
WEE1 (Homo sapiens, UniProt P30291) | 97.5%
CSNK1G2 (Homo sapiens, UniProt P78368) | 99.5%
MAP3K5 (Homo sapiens, UniProt Q99683) | 105%

Series 2
Organism: Sarcocystis neurona
Effect on: parasite growth
Concentration: 10 µM
Time: 96 h
Notes: secondary screen
Compound | inhibition [%]
CCN1CCN(c2cc3c(cc2F)c(=O)c(C(=O)O)cn3C2CC2)CC1 | -18.4
O=C1N[C@H](C(=O)O)CS1 | -0.117
COc1c(N2CCNC(C)C2)c(F)cc2c(=O)c(C(=O)O)cn(C3CC3)c12 (stereo not drawn) | 11.6
Nc1nc(=O)c2nc(CNc3ccc(C(=O)N[C@@H](CCC(=O)O)C(=O)O)cc3)cnc2[nH]1 | -7.2
CN(C)c1nc(N(C)C)nc(N(C)C)n1 | -13.8
CCn1cc(C(=O)O)c(=O)c2cc(F)c(N3CCNCC3)cc21 | -23.3
COc1c2occc2cc2ccc(=O)oc12 | -18.5
O=c1c(O[C@@H]2O[C@H](CO)[C@H](O)[C@H](O)[C@H]2O)c(-c2ccc(O)c(O)c2)oc2cc(O)cc(O)c12 | -29.7
C[C@H](CS)C(=O)N1CCC[C@H]1C(=O)O | -14.7
CN(C)CCOc1ccc(/C(=C(/CCCl)c2ccccc2)c2ccccc2)cc1 | -32.9
O=C1C(CC[S+]([O-])c2ccccc2)C(=O)N(c2ccccc2)N1c1ccccc1 (stereo not drawn) | -19.9
C[C@H]1c2cccc(O)c2C(=O)C2=C(O)[C@]3(O)C(=O)C(C(N)=O)=C(O)[C@@H](N(C)C)[C@@H]3[C@@H](O)[C@@H]21 | 4
c1ccc2c(CC3=NCCN3)cccc2c1 | -1.1
C[C@]12CCC(=O)C=C1CC[C@@H]1[C@@H]2[C@@H](O)C[C@@]2(C)[C@H]1CC[C@]2(O)C(=O)CO | -15
Oc1ccc(/C=C/c2cc(O)cc(O)c2)cc1 | -15.1
C[C@](N)(Cc1ccc(O)c(O)c1)C(=O)O | -16.6

Series 3
Cell line: mouse MPNST tumor cells
Technique: high-content immunofluorescence imaging
Refers to: nuclear SOX9
Concentration: 10 µM
Time: 12 h
Notes: mean of 2 replicates
Relative to: DMSO control
Direction: higher = more nuclear SOX9
Structure (SMILES) | nuclear SOX9 intensity
CCOc1cccc(NC(=O)c2ccc(N3CCCC3)c(C(F)(F)F)c2)c1 | 113 % of DMSO
Nc1ncc2c(n1)CC(c1ccco1)CC2=O (stereo not drawn) | 96.7 % of DMSO
c1ccc(-c2[nH]ncc2-c2ccnc3ccccc23)nc1 | 114 % of DMSO
Brc1c(Br)c(Br)c2n[nH]nc2c1Br | 105 % of DMSO
COc1cc2nc(N3CCN(C(=O)COc4c(OC)cccc4C(C)C)CC3)nc(N)c2cc1OC | 192 % of DMSO
O=C(Nc1cc(-c2ccccc2)nn1-c1ccccc1F)c1ccc([N+](=O)[O-])cc1 | 95.1 % of DMSO
COc1cccc(CCc2ccccc2OCC(CN(C)C)OC(=O)CCC(=O)O)c1 (stereo not drawn) | 175 % of DMSO
CC(C)NC[C@H](O)COc1ccc(CC(N)=O)cc1 | 94.4 % of DMSO
CC(C)c1cnn2c(NCc3ccccc3)cc(NCCCCCCN)nc12 | 111 % of DMSO
COC(=O)Nc1nc2cc([S+]([O-])c3ccccc3)ccc2[nH]1 (stereo not drawn) | 101 % of DMSO

Series 4
Structure (SMILES): NS(=O)(=O)c1cc(NC(=O)Cc2ccccc2)ccc1Oc1cccc(Cl)c1
Concentration: 1 µM
target | effect on | technique | remaining binding [%]
ALK (Homo sapiens, UniProt Q9UM73) | cell-free assay | competition with immobilised ligand | 100
GRK2 (Homo sapiens, UniProt P25098) | cell-free assay | competition with immobilised ligand | 97
PIK3CA (Homo sapiens, UniProt P42336, E545K) | cell-free assay | competition with immobilised ligand | 77
TEK (Homo sapiens, UniProt Q02763) | cell-free assay | competition with immobilised ligand | 90
DAPK2 (Homo sapiens, UniProt Q9UIK4) | cell-free assay | competition with immobilised ligand | 90
PI4KB (Homo sapiens, UniProt Q9UBF8) | cell-free assay | competition with immobilised ligand | 55
RIPK2 (Homo sapiens, UniProt O43353) | cell-free assay | competition with immobilised ligand | 94
Tyrosine-protein kinase ABL1, non-phosphorylated (ABL1, Homo sapiens, UniProt P00519, T315I) | cell-free assay | competition with immobilised ligand | 61
GSK3A (Homo sapiens, UniProt P49840) | cell-free assay | competition with immobilised ligand | 93
Tyrosine-protein kinase ABL1, phosphorylated (ABL1, Homo sapiens, UniProt P00519, F317I) | binding | – | 72
LRRK2 (Homo sapiens, UniProt Q5S007, G2019S) | cell-free assay | competition with immobilised ligand | 100
SYK (Homo sapiens, UniProt P43405) | cell-free assay | competition with immobilised ligand | 66
PRPF4B (Homo sapiens, UniProt Q13523) | cell-free assay | competition with immobilised ligand | 97
PTK2B (Homo sapiens, UniProt Q14289) | cell-free assay | competition with immobilised ligand | 79
BMPR1A (Homo sapiens, UniProt P36894) | binding | competition with immobilised ligand | 69
MAPK3 (Homo sapiens, UniProt P27361) | cell-free assay | competition with immobilised ligand | 94
LIM domain kinase 1 (LIMK1, Homo sapiens, UniProt P53667) | cell-free assay | competition with immobilised ligand | 87
TYRO3 (Homo sapiens, UniProt Q06418) | cell-free assay | competition with immobilised ligand | 76
MAPK6 (Homo sapiens, UniProt Q16659) | cell-free assay | competition with immobilised ligand | 98
STK24 (Homo sapiens, UniProt Q9Y6E0) | cell-free assay | competition with immobilised ligand | 82
Ribosomal protein S6 kinase alpha-5, C-terminal kinase domain (RPS6KA5, Homo sapiens, UniProt O75582) | cell-free assay | competition with immobilised ligand | 100
PTK2 (Homo sapiens, UniProt Q05397) | cell-free assay | competition with immobilised ligand | 96
TEC (Homo sapiens, UniProt P42680) | binding | competition with immobilised ligand | 96
FLT4 (Homo sapiens, UniProt P35916) | cell-free assay | competition with immobilised ligand | 79
PIP5K1A (Homo sapiens, UniProt Q99755) | cell-free assay | competition with immobilised ligand | 100
